Measurements collected from several papers.
Numbers after ± are the reported error.
Method: steady-state kinetics
B1: protein P94L (Streptomyces coelicolor, UniProt P16544); chain MATQDSEVALVTGATSGIGLEIARRLGKEGLRVFVCARGEEGLRTTLKELREAGVEADGRTCDVRSVPEIEALVAAVVERYGPVDVLVNNAGRLGGGATAELADELWLDVVETNLTGVFRVTKQVLKAGGMLERGTGRIVNIASTGGKQGVVHAAPYSASKHGVVGFTKALGLELARTGITVNAVCPGFVETPMAASVREHYSDIWEVSTEEAFDRITARVPIGRYVQPSEVAEMVAYLIGPGAAAVTAQALNVCGGLGNY
B2: Tcur_2987 Y332F (Thermomonospora curvata, UniProt D1A807); chain ACSEERAAGARPSATQTTGTATEPFHGPHQAGIATPPQAHAVFLGLDLRKGTGRKELGRLMRLLTDDARRLTQGRPALADPEPDLAPLPSRLTFTFGFGPGLFKAAGLEKQRPEGLRPLPPFKVDRLEDRWSGGDLLVQICCDDPITLAHALRMTVKDARAFTRVRWVQRGFRRSPGVQSSGATQRNLMGQLDGTVNPVPGTADFDQAVWVQDGPEWLRGGTTLVLRRIRMELEKWDEADPAGKEFAVGRRLTSGAPLTGRHEHDEPDFDAVDSAGFPVIAENAHIRLAHVDSPRLRMLRRPYNFDEGLTADGRSDAGLLFAAYQADIDRQFIPVQRRLDEGGDLLNLWTTPIGSAVFAIPPGCDENGWIGQGLLG
B3: TylM1 H123N (Streptomyces fradiae, UniProt P95748); chain MAHSSATAGPQADYSGEIAELYDLVHQGKGKDYHREAADLAALVRRHSPKAASLLDVACGTGMHLRHLADSFGTVEGLELSADMLAIARRRNPDAVLHHGDMRDFSLGRRFSAVTCMFSSIGNLAGQAELDAALERFAAHVLPDGVVVVEPWWFPENFTPGYVAAGTVEAGGTTVTRVSHSSREGEATRIEVHYLVAGPDRGITHHEESHRITLFTREQYERAFTAAGLSVEFMPGGPSGRGLFTGLPGAKGETR
B4: enzyme A178R/D177A/M179S/P184R (Levilactobacillus brevis, UniProt Q03Q85); chain MKVTVVGCTHAGTFAIKQILAEHPDAEVTVYERNDVISFLSCGIALYLGGKVADPQGLFYSSPEELQKLGANVQMNHNVLAIDPDQKTVTVEDLTNHAQTTESYDKLVMTSGSWPIVPKIPGIDSDRVKLCKNWAHAQALIEDAKEAKRITVIGAGYIGAELAEAYSTTGHDVTLIARSARVMRKYFDADFTDVIEQDYRDHGVQLALGETVESFTDSATGLTIKTDKNSYETDLAILCIGFRPNTDLLKGKVDMAPNGAIITDDYMRSSNPDIFAAGDSAAVHYNPTHQNAYIPLATNAVRQGILVGKNLVKPTVKYMGTQSSSGLALYDRTIVSTGLTLAAAKQQGLNAEQVIVEDNYRPEFMPSTEPVLMSLVFDPDTHRILGGALMSKYDVSQSANTLSVCIQNENTIDDLAMVDMLFQPNFDRPFNYLNILAQAAQAKVAQSVNA
B5: protein E205A (Zea mays, UniProt A0A2H4PMI3); chain APFACVSRWLHTPSFATVSPQEVSGSSPAEVQNFVQGSWTASANWNWIVDPLNGDKFIKVAEVQGTEIKSFMESLSKCPKHGLHNPLKAPERYLMYGDISAKAAHMLGQPTVLDFFAKLIQRVSPKSYQQALAEVQVSQKFLENFCGDQVRFLARSFAVPGNHLGQRSNGYRWPYGPVAIITPFNFPLAIPLLQLMGALYMGNKPVLKVDSKVSIVMEQMIRLLHDCGLPAEDMDFINSDGAVMNKLLLEANPKMTLFTGSSRVAEKLAADLKGRVKLEDAGFDWKILGPDVQEVDYVAWVCDQDAYACSGQKCSAQSVLFMHKNWSSSGLLEKMKKLSERRKLEDLTIGPVLTVTTEAMIEHMNNLLKIRGSKVLFGGEPLANHSIPKIYGAMKPTAVFVPLEEILKSGNFELVTKEIFGPFQVVTEYSEDQLELVLEACERMNAHLTAAIVSNDPLFLQDVLGRSVNGTTYAGIRARTTGAPQNHWFGPAGDPRGAGIGTPEAIKLVWSCHREIIYDVGPVPESWALPSAT
B6: protein (Cecembia lonarensis, UniProt K1KV82); chain QENKEKDRTPSSKHLTDNILQPKRSSDFMAFKYEYSTVDLYREFSESIMDKARSEVEILESVNRQGRYKPNVESLKLHEVPEWFEDAKLGIFLDWGPWSVPGYAPLKGAEASTGGSYPDWYEFLMDNLYKEYHDEVWGADFRRDDFLPLLTGENFNSEEYMLLAVNSGAKYFVPFTKHHAGWTMWESEFTKRNAVEMGPGRDIYKELIEAGKKYDMKMGFYFSVSEWEYPVIVDQNLSQWDPVKNLAIFQDALGQIPRATPLASYFPALHDRMISGKIPVKDYFADYMIPSFKEAVDKYDPDLVWYDGGWGSPVSISRTMETSAYFYNQAEGKKDVVINNRAGSSLSEDDLIKVRDLMDSGKRDEAMKIYLSGQQLGDYGTPEFTIGDVDIQSKWEVCRSISPAFGYNWQDDEASSLSGEELIKLFVDIVANNGNLLLVISPDGSGKLPDIQKDRLLELGDWMKVNAESIHNTRPWKVQKENDKFFTKSKDGKSLFVHCTNWPGENLIINTPIEEGIKGIKLLGSDINLQFTKASNGNLEIPIPKDFQNNPSLISKYVWTFKIDLN
B7: pyc H216N (Rhizobium etli, UniProt Q2K340); chain MPISKILVANRSEIAIRVFRAANELGIKTVAIWAEEDKLALHRFKADESYQVGRGPHLARDLGPIESYLSIDEVIRVAKLSGADAIHPGYGLLSESPEFVDACNKAGIIFIGPKADTMRQLGNKVAARNLAISVGVPVVPATEPLPDDMAEVAKMAAAIGYPVMLKASWGGGGRGMRVIRSEADLAKEVTEAKREAMAAFGKDEVYLEKLVERARNVESQILGDTHGNVVHLFERDCSVQRRNQKVVERAPAPYLSEAQRQELAAYSLKIAGATNYIGAGTVEYLMDADTGKFYFIEVNPRIQVEHTVTEVVTGIDIVKAQIHILDGAAIGTPQSGVPNQEDIRLNGHALQCRVTTEDPEHNFIPDYGRITAYRSASGFGIRLDGGTSYSGAIITRYYDPLLVKVTAWAPNPLEAISRMDRALREFRIRGVATNLTFLEAIIGHPKFRDNSYTTRFIDTTPELFQQVKRQDRATKLLTYLADVTVNGHPEAKDRPKPLENAARPVVPYANGNGVKDGTKQLLDTLGPKKFGEWMRNEKRVLLTDTTMRDGHQSLLATRMRTYDIARIAGTYSHALPNLLSLECWGGATFDVSMRFLTEDPWERLALIREGAPNLLLQMLLRGANGVGYTNYPDNVVKYFVRQAAKGGIDLFRVFDCLNWVENMRVSMDAIAEENKLCEAAICYTGDILNSARPKYDLKYYTNLAVELEKAGAHIIAVKDMAGLLKPAAAKVLFKALREATGLPIHFHTHDTSGIAAATVLAAVEAGVDAVDAAMDALSGNTSQPCLGSIVEALSGSERDPGLDPAWIRRISFYWEAVRNQYAAFESDLKGPASEVYLHEMPGGQFTNLKEQARSLGLETRWHQVAQAYADANQMFGDIVKVTPSSKVVGDMALMMVSQDLTVADVVSPDREVSFPESVVSMLKGDLGQPPSGWPEALQKKALKGEKPYTVRPGSLLKEADLDAERKVIEKKLEREVSDFEFASYLMYPKVFTDFALASDTYGPVSVLPTPAYFYGLADGEELFADIEKGKTLVIVNQAVSATDSQGMVTVFFELNGQPRRIKVPDRAHGATGAAVRRKAEPGNAAHVGAPMPGVISRVFVSSGQAVNAGDVLVSIEAMKMETAIHAEKDGTIAEVLVKAGDQIDAKDLLAVYGG
B8: Saccharopine reductase C154S (Saccharomyces cerevisiae, UniProt P38999); chain MGKNVLLLGSGFVAQPVIDTLAANDDINVTVACRTLANAQALAKPSGSKAISLDVTDDSALDKVLADNDVVISLIPYTFHPNVVKSAIRTKTDVVTSSYISPALRELEPEIVKAGITVMNEIGLDPGIDHLYAVKTIDEVHRAGGKLKSFLSYSGGLPAPEDSDNPLGYKFSWSSRGVLLALRNSAKYWKDGKIETVSSEDLMATAKPYFIYPGYAFVCYPNRDSTLFKDLYHIPEAETVIRGTLRYQGFPEFVKALVDMGMLKDDANEIFSKPIAWNEALKQYLGAKSTSKEDLIASIDSKATWKDDEDRERILSGFAWLGLFSDAKITPRGNALDTLCARLEELMQYEDNERDMVVLQHKFGIEWADGTTETRTSTLVDYGKVGGYSSMAATVGYPVAIATKFVLDGTIKGPGLLAPYSPEINDPIMKELKDKYGIYLKEKTVA

Molecule | substrate | pH | temperature | setting | together with | kcat
protein (UniProt M4ZR24) | NC[C@H]1O[C@@H](n2ccc(=O)[nH]c2=O)[C@H](O)[C@@H]1O |  |  | phosphorolysis, single substrate | phosphate | 0.0667 ± 0.005 s⁻¹
B1 (protein P94L) | O[C@H]1CCCc2ccccc21 | pH 7.4 |  | phosphate 400 mM, NADPH 250 µM printed | NADP+, reverse reaction | 0.24 ± 0.03 s⁻¹
B2 (Tcur_2987 Y332F) | Nc1c(S(=O)(=O)O)cc(Nc2cccc(S(=O)(=O)CCOS(=O)(=O)O)c2)c2c1C(=O)c1ccccc1C2=O | pH 3 |  | sigmoidal kinetics | H2O2 1 mM | 83 ± 1 s⁻¹
PGDH1 (Amborella trichopoda, UniProt U5D351) | O=C(O)[C@H](O)COP(=O)(O)O | pH 9 | 25 °C | NaCl 0.1 M, apparent | NAD+ | 20.4 ± 0.4 s⁻¹
B3 (TylM1 H123N) | Cc1cn([C@H]2C[C@H](O)[C@@H](COP(=O)(O)OP(=O)(O)O[C@H]3O[C@H](C)[C@@H](O)[C@H](N)[C@H]3O)O2)c(=O)[nH]c1=O |  | 25 °C |  | SAM | 0.0126 ± 0.0003 s⁻¹
nahG (Pseudomonas putida, UniProt P23262) | Cc1cc2nc3c(=O)[nH]c(=O)nc-3n(C[C@H](O)[C@H](O)[C@H](O)COP(=O)(O)O)c2cc1C | pH 8.5 | 25 °C | no AMP, apparent, cofactor varied | NADH 200 µM, salicylate 150 µM | 8.4 ± 0.5 s⁻¹
B4 (enzyme A178R/D177A/M179S/P184R) | NC(=O)C1=CN([C@@H]2O[C@H](COP(=O)(O)OP(=O)(O)OC[C@H]3O[C@@H](n4cnc5c(N)ncnc54)[C@H](O)[C@@H]3O)[C@@H](O)[C@H]2O)C=CC1 | pH 7.5 | 37 °C | per site |  | 7.9 ± 1 s⁻¹
B5 (protein E205A) | O=CCCCC(=O)O | pH 7.5 | 30 °C | substrate inhibition | NAD+ 3.0 mM | 0.53 ± 0.02 s⁻¹
protein (Chlorobium limicola, UniProt B3ECE3) | SSSS | pH 8 | 25 °C | polysulfide mixture | hercynine 0.5 mM | 0.0113 ± 0.000167 s⁻¹
PRP43 (Saccharomyces cerevisiae, UniProt P53131) | O=c1ccn([C@@H]2O[C@H](COP(=O)(O)OP(=O)(O)OP(=O)(O)O)[C@@H](O)[C@H]2O)c(=O)[nH]1 | pH 8 |  |  |  | 9.7 ± 0.4 s⁻¹
B6 (protein) | O=[N+]([O-])c1ccc(O[C@@H]2OC[C@H](O)[C@@H](O)[C@@H]2O)cc1 | pH 5.5 | 35 °C | substrate inhibition |  | 3.98 ± 0.92 s⁻¹
B7 (pyc H216N) | Nc1ncnc2c1ncn2[C@@H]1O[C@H](COP(=O)(O)OP(=O)(O)OP(=O)(O)O)[C@@H](O)[C@H]1O | pH 7.8 | 30 °C | no pyruvate | NaHCO3 20 mM, acetyl CoA 0.25 mM, Mg2+ 5 mM | 0.0117 ± 0.0007 s⁻¹
B8 (Saccharopine reductase C154S) | N[C@@H](CCC(=O)O)C(=O)O | pH 7 | 25 °C |  | NADPH, AASA | 0.27 ± 0.02 s⁻¹

Some of these lines once more:
Molecule | substrate | pH | temperature | setting | together with | kcat
B4 (enzyme A178R/D177A/M179S/P184R) | NC(=O)C1=CN([C@@H]2O[C@H](COP(=O)(O)OP(=O)(O)OC[C@H]3O[C@@H](n4cnc5c(N)ncnc54)[C@H](O)[C@@H]3O)[C@@H](O)[C@H]2O)C=CC1 | pH 7.5 | 37 °C | per site |  | 7.9 ± 1 s⁻¹
